Measured values from different studies.
Compare with care: the assays were run in different laboratories. Numbers after ± are the reported error.

Compound | test | test system | setting | how to read | endpoint | result
CN(C)C(CNC(=O)Nc1cc(C(F)(F)F)ccc1N1CCOCC1)c1ccncc1 (stereo not drawn) | – | mouse, serum | intraperitoneal, 180 mg/kg single dose | – | serum alkaline phosphatase | 63 U/L
[11CH3]n1c(=O)n(CCCO)c(=O)c2c1nc(Oc1cccc(OC(F)(F)F)c1)n2Cc1ccc(Cl)cc1 | ex vivo biodistribution | Sprague Dawley rat, brain | 60 min post injection | – | tracer uptake | 0.25 ± 0.03 %ID/g
CCCC[C@H]1C(=O)N(C)[C@@H](CCCC)C(=O)N[C@@H](CCCNC(=O)CN2CCN(CC(=O)O)CCN(CC(=O)O)CCN(CC(=O)O)CC2)C(=O)N[C@H](C(=O)NCC(N)=O)CSCC(=O)N[C@@H](Cc2ccc(O)cc2)C(=O)N(C)[C@@H](C)C(=O)N[C@@H](CC(N)=O)C(=O)N2CCC[C@H]2C(=O)N[C@@H](Cc2c[nH]cn2)C(=O)N[C@@H](CC(C)C)C(=O)N(C)CC(=O)N[C@@H](Cc2c[nH]c3ccccc23)C(=O)N[C@@H](CO)C(=O)N[C@@H](Cc2c[nH]c3ccccc23)C(=O)N1C [gallium-68 labelled] | – | NOD/SCID mice, CHO-hPD-L1 xenograft, tumour over blood | iv, dose not given, 60 min | reference: tumour over blood | tissue-to-tissue ratio | 1.66 ± 0.36
CC[C@H](C)[C@H](NC(=O)[C@H](CCCN)NC(=O)[C@H](CC(N)=O)NC(=O)[C@H](Cc1c[nH]c2ccccc12)NC(=O)[C@H](Cc1ccccc1)NC(=O)[C@H](CCCN)NC(=O)[C@H](CCCCNC(=N)N)NC(=O)[C@H](CC(C)C)NC(=O)[C@H](Cc1c[nH]c2ccccc12)NC(=O)[C@H](CCCN)NC(=O)[C@H](CCCCNC(=N)N)NC(=O)[C@H](CC(C)C)NC(=O)CNC(C)=O)C(=O)N[C@@H](CCCN)C(=O)N[C@@H](CCCCNC(=N)N)C(N)=O | refers to: ALT, AST, LDH, creatinine, BUN | Kunming mice | intravenous, 10 mg/kg, day 10 | reference: control | serum biochemistry and haematology | no effect
CC[C@H](C)C(=O)N1CCC(NC(=O)Nc2ccc(OC(F)(F)F)c(F)c2)CC1 | – | healthy volunteers | oral, 8 mg single dose | – | subjects with related TEAE | 0%
CC(C)C[C@@H](N)C(=O)NCC(=O)N[C@H](C)C(=O)N[C@H](CO)C(=O)N[C@H](Cc1c[nH]c2ccccc12)C(=O)N[C@H](Cc1c[nH]cn1)C(=O)N[C@H](CCCNC(=N)N)C(=O)N1CCC[C@@H]1C(=O)N[C@H](CC(=O)O)C(=O)N[C@H](CCCCN)C(=O)N[C@H](CS)C(=O)N[C@H](CS)C(=O)N[C@H](CC(C)C)C(=O)NCC(=O)N[C@H](Cc1ccc(O)cc1)C(=O)N[C@H](CCC(N)=O)C(=O)N[C@H](CCCCN)C(=O)N[C@H](CCCNC(=N)N)C(=O)N1CCC[C@@H]1C(=O)N[C@H](CC(C)C)C(=O)N1CCC[C@@H]1C(N)=O | LC-MS/MS | rat plasma extract | 500 ng/mL, 4 h, 8 °C, autosampler storage | reference: nominal | accuracy | 97.3%
O=C(O)[c-]1cccc1.O=C(Oc1ccc(-n2cccc2)cc1)[c-]1cccc1.[Fe+2] | cyclic voltammetry | acetonitrile | – | reference: Ag/AgCl | ΔE | 126 mV
[2H]C([2H])([2H])C([2H])([2H])C([2H])([2H])OC(C(=O)OC1CCNCC1)(c1ccccc1)c1ccccc1 | refers to: diarrhea | healthy Japanese male | oral, 10 mg, 16 days, multiple ascending dose | – | adverse drug reactions | 0%
CC(C)C[C@H](NC(=O)[C@H](CCCCN)NC(=O)[C@H](CCC(=O)O)NC(=O)[C@H](C)NC(=O)[C@@H](NC(=O)[C@H](CCCCN)NC(=O)[C@H](CC(=O)O)NC(=O)[C@H](Cc1ccc(O)cc1)NC(=O)[C@H](Cc1ccccc1)NC(=O)[C@H](C)NC(=O)[C@H](CCCCN)NC(=O)[C@H](CC(C)C)NC(=O)[C@H](Cc1c[nH]c2ccccc12)NC(=O)[C@@H](N)CC(=O)O)C(C)C)C(=O)N[C@@H](CCCCN)C(=O)N[C@@H](CCC(=O)O)C(=O)N[C@@H](C)C(=O)N[C@@H](Cc1ccccc1)C(=O)N1CCC[C@H]1C(=O)N[C@@H](CC(=O)O)C(=O)N[C@@H](Cc1c[nH]c2ccccc12)C(=O)N[C@@H](C)C(=O)N[C@@H](CCCCN)C(=O)N[C@@H](C)C(=O)N[C@@H](C)C(=O)N[C@@H](Cc1ccc(O)cc1)C(=O)N[C@@H](CC(=O)O)C(=O)N[C@@H](CCCCN)C(=O)N[C@@H](C)C(=O)N[C@@H](C)C(=O)N[C@@H](CCC(=O)O)C(=O)N[C@@H](CCCCN)C(=O)N[C@@H](C)C(=O)N[C@@H](CCCCN)C(=O)N[C@@H](CCC(=O)O)C(=O)N[C@@H](C)C(=O)N[C@@H](C)C(=O)O | – | cynomolgus monkey female, plasma | intravenous infusion, 8 mg/kg every other day, day 27 | – | AUC(0-inf) | 573 µg·h/mL
CC(C)[C@H](NC(=O)CNC(=O)[C@H](CCC(N)=O)NC(=O)[C@H](C)N)C(=O)O | – | healthy human | intravenous, 3 mg/kg single dose | reference: subjects | subjects with adverse events | 33.3%
COc1ccnc(-c2cc(OC)ccn2)c1.O.[C-]#[O+].[C-]#[O+].[C-]#[O+].[Re+] | RP-HPLC C18 column, refers to: free diimine ligand | MeCN:water 40:60, 0.1% TFA | isocratic elution | – | capacity factor | 0.74
O=C(c1ccc(F)cc1)C1CCN(C2Cc3c(cccc3OCC[18F])CC2O)CC1 (single isomer, unassigned; (-)) | – | Sprague-Dawley rat, male, liver | intravenous, dose not given, 5 min | – | tissue uptake | 1.06 ± 0.121 %ID/g
[3H]c1sc(C)nc1C=C(C)C1CC2C(CCCC(C)C(O)C(C)C(=O)C(C)(C)C(O)CC(=O)O1)N2CCO (stereo not drawn) | – | CD2F1 mice, plasma | intravenous, 2.2 nmol/kg, 24 h | – | plasma concentration | 13.5 ng/mL
CC[C@H](C)[C@H](NC(=O)[C@H](N)Cc1ccc(O)cc1)C(=O)N[C@H]1CSSC[C@@H](C(=O)N(C)[C@H](C(N)=O)[C@@H](C)CC)NC(=O)[C@H](CCCNC(=N)N)NC(=O)[C@H](Cc2c[nH]cn2)NC(=O)[C@H](C)NC(=O)CN(C)C(=O)[C@H](Cc2c[nH]c3ccccc23)NC(=O)[C@H](CC(=O)O)NC(=O)[C@H](CCC(N)=O)NC(=O)[C@H](Cc2cn(C)c3ccccc23)NC(=O)[C@H](C(C)C)NC1=O | UPLC-MS | cynomolgus monkey, haemodialysis, plasma | intravenous, 2 mg/kg bolus plus 4 µg/kg/min infusion, first 6 h of 4-h haemodialysis | – | plasma concentration | 5.2 µM
COc1ccc2c3c(c4cc(OC)c(OC)cc4c2c1)C(=O)N1CCCC1C3 (stereo not drawn) | – | swine cells | 24 (unit not given) | – | CC50 | 71.5 ± 2.15 µM
CC(C)C[C@H](NC(=O)[C@H](Cc1ccc(O)cc1)NC(=O)[C@H](C)NC(=O)[C@H](CC(N)=O)NC(=O)[C@H](CC(C)C)NC(=O)[C@H](C)NC(=O)[C@@H](NC(=O)[C@H](CCCCN)NC(=O)CNC(=O)[C@@H](NC(=O)[C@H](CCCCN)NC(=O)[C@H](CCCCN)NC(=O)CNC(=O)[C@@H](NC(=O)[C@H](Cc1c[nH]cn1)NC(=O)[C@@H](NC(=O)[C@H](C)NC(=O)[C@H](CCCCN)NC(=O)[C@H](CCCCN)NC(=O)[C@H](Cc1ccccc1)NC(=O)[C@H](Cc1c[nH]c2ccccc12)NC(=O)[C@H](CCCCN)NC(=O)[C@H](CCCCN)NC(=O)[C@H](CC(C)C)NC(=O)CN)C(C)C)C(C)C)C(C)C)C(C)C)C(N)=O | – | zebrafish embryos | 1 h, 4, 28, 52 hpf | – | acute toxic concentration | 5 µg/mL
C[C@H]1N=C(c2ccccc2F)c2cc(Br)ccc2-n2cnc(C(=O)OC3O[C@H](C(=O)O)[C@@H](O)[C@H](O)[C@H]3O)c21 (stereo partly drawn) | LC-MS/MS | Swiss Webster mouse, female, urine | intravenous, 250 µg parent drug, 24 to 48 h | – | cumulative excretion | 0.1 ± 0.04%
COc1cc2ncnc(Oc3cccc(N[11C](=O)Nc4cc(C(C)(C)C(F)(F)F)on4)c3)c2cc1OC | radio-HPLC | female Balb/c nude mice, plasma | intravenous, 30 min | reference: radioactivity | intact compound in plasma | 87.8%
CC[C@@H]1C[C@]1(NC(=O)[C@@H]1C[C@@]2(CN1C(=O)[C@@H](NC(=O)[C@@H](NC(=O)[C@@H]1CCCCN1C(C)C)C1CCCCC1)C(C)(C)C)C(C)(C)C21CCC1)C(=O)NS(=O)(=O)N1CCCC1 | – | human | oral, dose not given, with: ritonavir 100 mg | reference: without ritonavir | fold increase in exposure | ≤ 60 fold
CSCC[C@@H]1NC(=O)[C@@H]2CSSC[C@H](NC(=O)[C@H](CO)NC(=O)[C@H](C)N)C(=O)N[C@@H](CCCNC(=N)N)C(=O)N[C@@H]([C@@H](C)O)C(=O)N3CCC[C@H]3C(=O)N[C@@H](CCCCN)C(=O)N[C@@H](CC(=O)O)C(=O)N[C@H]3CSSC[C@H](NC(=O)[C@H](CCCCN)NC(=O)[C@H](CCCNC(=N)N)NC(=O)[C@H](CC(N)=O)NC1=O)C(=O)N[C@@H](CCCCN)C(=O)N[C@H]1CSSC[C@H](NC(=O)[C@@H]4CCCN4C(=O)[C@H](CC(=O)O)NC(=O)[C@H](C)NC3=O)C(=O)N[C@@H](C)C(=O)N[C@@H](CCCCN)C(=O)N[C@@H](CCC(=O)O)C(=O)N[C@@H]([C@@H](C)O)C(=O)NCC(=O)N[C@@H](CSSC[C@@H](C(N)=O)NC(=O)[C@H](CCCNC(=N)N)NC(=O)[C@H](CC(N)=O)NC1=O)C(=O)N1CCC[C@H]1C(=O)N[C@@H](Cc1ccc(O)cc1)C(=O)NCC(=O)N[C@@H](CCCCN)C(=O)N2 | – | DA rat, pristane-induced arthritis, serum | subcutaneous, 0.1 mg/kg single dose at onset, 21 days | – | VLDL | 13.2 mg/dL
Cc1ccc(OCC(=O)N(Cc2cccs2)c2ccn[nH]2)cc1 | – | Crl:CD(SD) rat, bred female | oral, 1000 mg/kg/day, mean per litter, developmental toxicity | – | fetal weight | 5.7 g
CCNc1cc2[o+]c3cc(NCC)c(C)cc3c(-c3ccccc3C(=O)OCCOCC[18F])c2cc1C | – | rat, heart | 120 min | – | tissue uptake | 1.77 ± 0.15 %ID/g
COc1cc(NC(=O)C(=O)c2c(C)n(Cc3ccc(Cl)cc3)c3ccc(C)cc23)ccn1 | – | cynomolgus monkey, both sexes, plasma | intravenous, 1 mg/kg | – | central volume | 432 mL/kg
COC(=O)C[C@](O)(CCCC(C)(C)OC(C)=O)C(=O)O[C@@H]1C(OC)=C[C@]23CCCN2CCc2cc4c(cc2[C@H]13)OCO4 | – | CD1 mouse, spleen | subcutaneous, 1 mg/kg, 8 h, below quantification limit 1.00 ng/mL | – | tissue concentration | not detected

A few entries again:
Compound | test | test system | setting | how to read | endpoint | result
COc1cc(NC(=O)C(=O)c2c(C)n(Cc3ccc(Cl)cc3)c3ccc(C)cc23)ccn1 | – | cynomolgus monkey, both sexes, plasma | intravenous, 1 mg/kg | – | central volume | 432 mL/kg
CC[C@@H]1C[C@]1(NC(=O)[C@@H]1C[C@@]2(CN1C(=O)[C@@H](NC(=O)[C@@H](NC(=O)[C@@H]1CCCCN1C(C)C)C1CCCCC1)C(C)(C)C)C(C)(C)C21CCC1)C(=O)NS(=O)(=O)N1CCCC1 | – | human | oral, dose not given, with: ritonavir 100 mg | reference: without ritonavir | fold increase in exposure | ≤ 60 fold
